{"data": "Assay results gathered from unrelated publications", "note": "Every numbered part comes from another study and shows a few of its results, in no order. Changes are numbered by the printed parent chain.", "UniProt Q8RYC6, sequence (whole entry, looked up)": "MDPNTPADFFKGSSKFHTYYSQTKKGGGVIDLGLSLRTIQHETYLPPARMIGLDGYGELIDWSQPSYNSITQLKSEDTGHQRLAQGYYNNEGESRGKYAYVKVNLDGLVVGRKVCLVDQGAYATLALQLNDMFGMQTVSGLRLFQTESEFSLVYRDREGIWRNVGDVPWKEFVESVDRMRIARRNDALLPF", "UniProt Q9C8N7, sequence (whole entry, looked up)": "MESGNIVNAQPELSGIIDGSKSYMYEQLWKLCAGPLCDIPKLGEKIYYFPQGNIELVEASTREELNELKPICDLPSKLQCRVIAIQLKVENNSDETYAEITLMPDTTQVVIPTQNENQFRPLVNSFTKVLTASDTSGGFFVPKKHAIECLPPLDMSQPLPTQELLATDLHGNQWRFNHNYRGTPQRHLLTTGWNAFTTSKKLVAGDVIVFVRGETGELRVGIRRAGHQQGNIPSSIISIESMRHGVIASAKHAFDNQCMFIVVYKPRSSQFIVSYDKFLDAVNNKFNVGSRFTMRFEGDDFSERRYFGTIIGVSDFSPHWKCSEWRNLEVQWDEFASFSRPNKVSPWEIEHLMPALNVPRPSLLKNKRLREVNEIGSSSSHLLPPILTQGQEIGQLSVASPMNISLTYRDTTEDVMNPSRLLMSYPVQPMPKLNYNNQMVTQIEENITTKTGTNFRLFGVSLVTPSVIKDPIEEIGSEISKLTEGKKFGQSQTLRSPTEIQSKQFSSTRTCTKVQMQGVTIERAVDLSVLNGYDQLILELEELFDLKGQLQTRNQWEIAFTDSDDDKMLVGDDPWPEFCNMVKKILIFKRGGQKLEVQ", "UniProt Q9XED8, sequence (whole entry, looked up)": "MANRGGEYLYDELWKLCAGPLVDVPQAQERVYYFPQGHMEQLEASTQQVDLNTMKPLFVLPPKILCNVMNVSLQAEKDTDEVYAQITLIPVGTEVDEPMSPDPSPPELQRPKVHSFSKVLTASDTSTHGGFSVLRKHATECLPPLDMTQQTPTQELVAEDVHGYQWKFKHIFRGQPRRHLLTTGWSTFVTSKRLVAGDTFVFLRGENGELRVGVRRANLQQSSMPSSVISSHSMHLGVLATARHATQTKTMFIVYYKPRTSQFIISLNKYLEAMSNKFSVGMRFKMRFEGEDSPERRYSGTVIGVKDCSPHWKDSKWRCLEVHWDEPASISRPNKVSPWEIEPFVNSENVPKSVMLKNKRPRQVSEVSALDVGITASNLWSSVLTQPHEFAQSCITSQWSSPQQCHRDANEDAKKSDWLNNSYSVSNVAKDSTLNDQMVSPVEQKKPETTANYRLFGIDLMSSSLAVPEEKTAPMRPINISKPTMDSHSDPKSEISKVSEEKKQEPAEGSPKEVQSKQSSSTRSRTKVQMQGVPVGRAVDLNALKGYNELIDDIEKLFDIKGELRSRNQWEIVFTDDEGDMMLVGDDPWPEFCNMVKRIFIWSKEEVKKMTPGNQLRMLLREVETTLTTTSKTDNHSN", "UniProt P93022, sequence (whole entry, looked up)": "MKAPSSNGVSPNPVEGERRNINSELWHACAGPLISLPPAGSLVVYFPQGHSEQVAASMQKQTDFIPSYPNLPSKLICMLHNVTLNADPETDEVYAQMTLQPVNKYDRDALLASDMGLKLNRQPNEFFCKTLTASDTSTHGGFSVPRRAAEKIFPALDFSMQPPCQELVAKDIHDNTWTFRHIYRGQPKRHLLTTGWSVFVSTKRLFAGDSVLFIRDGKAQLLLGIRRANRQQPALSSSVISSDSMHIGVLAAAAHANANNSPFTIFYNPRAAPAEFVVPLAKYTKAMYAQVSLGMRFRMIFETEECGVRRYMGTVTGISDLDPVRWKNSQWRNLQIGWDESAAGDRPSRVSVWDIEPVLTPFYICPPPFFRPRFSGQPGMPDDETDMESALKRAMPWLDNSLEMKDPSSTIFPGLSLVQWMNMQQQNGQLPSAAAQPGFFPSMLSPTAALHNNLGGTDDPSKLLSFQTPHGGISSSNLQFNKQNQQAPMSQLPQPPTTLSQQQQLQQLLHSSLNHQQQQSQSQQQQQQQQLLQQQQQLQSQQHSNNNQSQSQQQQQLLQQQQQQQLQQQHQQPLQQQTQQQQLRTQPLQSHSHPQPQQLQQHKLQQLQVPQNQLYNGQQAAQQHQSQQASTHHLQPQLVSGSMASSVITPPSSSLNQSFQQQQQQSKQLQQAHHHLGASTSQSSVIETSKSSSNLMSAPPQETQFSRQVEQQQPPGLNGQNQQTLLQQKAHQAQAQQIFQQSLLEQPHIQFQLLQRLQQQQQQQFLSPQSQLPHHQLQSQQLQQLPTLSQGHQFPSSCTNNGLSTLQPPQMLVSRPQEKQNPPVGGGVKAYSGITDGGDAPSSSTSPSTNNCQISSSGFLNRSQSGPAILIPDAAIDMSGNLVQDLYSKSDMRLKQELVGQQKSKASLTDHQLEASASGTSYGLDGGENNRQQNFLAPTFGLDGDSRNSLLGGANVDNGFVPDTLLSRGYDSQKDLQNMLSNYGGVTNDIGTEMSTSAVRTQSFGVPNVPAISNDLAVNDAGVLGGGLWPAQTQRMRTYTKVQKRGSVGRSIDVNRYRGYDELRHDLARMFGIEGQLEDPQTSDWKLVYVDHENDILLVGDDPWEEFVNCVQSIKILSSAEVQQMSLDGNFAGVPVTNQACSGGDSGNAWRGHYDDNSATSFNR"}
{"data": "Series 1", "target": "Histone acetyltransferase KAT6A, winged helix 2, GST fusion (KAT6A, Homo sapiens, UniProt Q92794, residues 85-181)", "method": "protein binding microarray", "form": "double-stranded DNA, one strand shown", "sample": "in vitro", "tested at": "not given", "setting": "8-mer, flanks averaged, mean of 2 arrays, mostly near background", "baseline": "not given", "reading": "higher = stronger binding", "Construct (chain)": "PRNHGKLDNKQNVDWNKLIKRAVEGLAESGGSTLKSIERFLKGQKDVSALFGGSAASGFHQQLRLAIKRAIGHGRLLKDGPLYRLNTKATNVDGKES"}
{"Oligonucleotide": "CCGTGGAA", "E-score": 0.0505}
{"Oligonucleotide": "AATCGAAT", "E-score": 0.0372}
{"Oligonucleotide": "CAAACAAG", "E-score": 0.0323}
{"Oligonucleotide": "GATCCCAC", "E-score": 0.0636}
{"Oligonucleotide": "CGTCGACG", "E-score": 0.0377}
{"Oligonucleotide": "ATGTTCTC", "E-score": 0.0669}
{"Oligonucleotide": "CGATATCG", "E-score": 0.115}
{"Oligonucleotide": "GATAAACC", "E-score": 0.182}
{"Oligonucleotide": "ATGCCTCC", "E-score": -0.0872}
{"Oligonucleotide": "CCCAGACG", "E-score": 0.0505}
{"Oligonucleotide": "CCATCACG", "E-score": -0.0473}
{"Oligonucleotide": "CATGCTGC", "E-score": 0.0883}
{"Oligonucleotide": "AGTCCGTA", "E-score": -0.111}
{"Oligonucleotide": "AGCCCCCG", "E-score": -0.0241}
{"Oligonucleotide": "GCCTGGCA", "E-score": 0.00026}
{"Oligonucleotide": "AACGTAGC", "E-score": -0.153}
{"Oligonucleotide": "CTCATTTA", "E-score": -0.0261}
{"Oligonucleotide": "TCCTGAGA", "E-score": 0.0548}
{"Oligonucleotide": "ACAGAGTC", "E-score": -0.0761}
{"Oligonucleotide": "AGCTCTAA", "E-score": -0.0724}
{"Oligonucleotide": "CCACTTGA", "E-score": 0.0169}
{"Oligonucleotide": "CATACAAA", "E-score": 0.0711}
{"Oligonucleotide": "CTTACGCC", "E-score": 0.156}
{"data": "Series 2", "target": "CCNB3, cyclin fold, Cln2 fusion (human)", "method": "yeast growth competition, sequencing", "sample": "yeast", "setting": "weak parent motif", "baseline": "not given", "reading": "higher = stronger binding", "starting sequence": "CDC6 docking peptide (human); TLKGRRLVFDNQL; partner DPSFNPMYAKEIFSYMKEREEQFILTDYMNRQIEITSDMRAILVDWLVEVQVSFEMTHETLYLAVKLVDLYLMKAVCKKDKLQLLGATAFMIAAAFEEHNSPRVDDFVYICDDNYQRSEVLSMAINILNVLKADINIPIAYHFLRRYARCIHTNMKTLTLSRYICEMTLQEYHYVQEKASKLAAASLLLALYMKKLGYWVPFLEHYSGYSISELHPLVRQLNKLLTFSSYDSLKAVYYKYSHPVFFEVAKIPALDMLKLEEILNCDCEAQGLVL"}
{"Substitution": "TLKGWRLVFDNQL [R5W]", "normalised enrichment score": 1.73}
{"Substitution": "TLKGRRLVFDQQL [N11Q]", "normalised enrichment score": 0.127}
{"Substitution": "TLKGRRLVFDNQI [L13I]", "normalised enrichment score": -0.0463}
{"Substitution": "TSKGRRLVFDNQL [L2S]", "normalised enrichment score": -0.398}
{"Substitution": "KLKGRRLVFDNQL [T1K]", "normalised enrichment score": 0.449}
{"Substitution": "TLKGRRLVFDNML [Q12M]", "normalised enrichment score": 0.439}
{"Substitution": "PLKGRRLVFDNQL [T1P]", "normalised enrichment score": 0.46}
{"Substitution": "TLKGRRLVFDNGL [Q12G]", "normalised enrichment score": 0.819}
{"Substitution": "TLKGRDLVFDNQL [R6D]", "normalised enrichment score": 0.0462}
{"Substitution": "TLKGARLVFDNQL [R5A]", "normalised enrichment score": 0.665}
{"Substitution": "TWKGRRLVFDNQL [L2W]", "normalised enrichment score": 0.333}
{"Substitution": "TLKLRRLVFDNQL [G4L]", "normalised enrichment score": -0.103}
{"Substitution": "TLKGRRLVFDNAL [Q12A]", "normalised enrichment score": 0.287}
{"Substitution": "TLKGRRLVFDNQD [L13D]", "normalised enrichment score": 0.257}
{"Substitution": "TLKGRRLVFDWQL [N11W]", "normalised enrichment score": 0.81}
{"Substitution": "TLKGRRLVVDNQL [F9V]", "normalised enrichment score": -0.591}
{"Substitution": "TLNGRRLVFDNQL [K3N]", "normalised enrichment score": 0.00881}
{"Substitution": "TLKSRRLVFDNQL [G4S]", "normalised enrichment score": -0.471}
{"Substitution": "GLKGRRLVFDNQL [T1G]", "normalised enrichment score": 0.241}
{"Substitution": "MLKGRRLVFDNQL [T1M]", "normalised enrichment score": 0.162}
{"Substitution": "TTKGRRLVFDNQL [L2T]", "normalised enrichment score": -0.285}
{"Substitution": "TLWGRRLVFDNQL [K3W]", "normalised enrichment score": 0.0104}
{"Substitution": "TLKGRRPVFDNQL [L7P]", "normalised enrichment score": -0.16}
{"Substitution": "TLKGKRLVLDNQL [R5K F9L]", "normalised enrichment score": 0.36}
{"Substitution": "TLKGRRLVFMNQL [D10M]", "normalised enrichment score": 0.471}
{"data": "Series 3", "Sequence": "B1 (IAA30)", "method": "two-hybrid", "setting": "weak activation fusion", "baseline": "out of 4 tests", "reading": "higher = firmer interaction", "T1": "itself; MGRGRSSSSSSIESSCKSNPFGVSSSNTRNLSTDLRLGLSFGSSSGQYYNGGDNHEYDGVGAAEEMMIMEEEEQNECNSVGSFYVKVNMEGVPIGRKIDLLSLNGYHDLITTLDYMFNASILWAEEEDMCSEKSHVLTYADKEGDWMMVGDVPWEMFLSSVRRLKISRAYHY", "B1": "IAA30 (Arabidopsis thaliana, UniProt Q9M1R4); chain MGRGRSSSSSSIESSCKSNPFGVSSSNTRNLSTDLRLGLSFGSSSGQYYNGGDNHEYDGVGAAEEMMIMEEEEQNECNSVGSFYVKVNMEGVPIGRKIDLLSLNGYHDLITTLDYMFNASILWAEEEDMCSEKSHVLTYADKEGDWMMVGDVPWEMFLSSVRRLKISRAYHY"}
{"partner": "IAA32 (Arabidopsis thaliana, UniProt Q8RYC6)", "positive tests": 1}
{"partner": "ARF22 498-598 (Arabidopsis thaliana, UniProt Q9C8N7)", "positive tests": 1}
{"partner": "T1, itself", "positive tests": 0}
{"partner": "ARF7 1030-1164 (Arabidopsis thaliana, UniProt P93022)", "positive tests": 1}
{"partner": "ARF9 519-638 (Arabidopsis thaliana, UniProt Q9XED8)", "positive tests": 2}
{"data": "Mixed results"}
{"Substance": "PhoQ, residues 284 288 289 292 302 303 SMYGEC", "target": "PhoP, residues 12 14 15 18 19 LHHSG (Escherichia coli, UniProt P23836)", "test": "Sort-seq, measured: YFP reporter", "system": "E. coli", "conditions": "PhoQ-PhoP variant library, added: 10 µM Mg2+", "scale": "baseline: high Mg2+ state, higher = stronger signaling", "quantity": "fold induction", "result": 2.12}
{"note": "Excerpt of the above (series 1):"}
{"Oligonucleotide": "CCCAGACG", "E-score": 0.0505}
{"Oligonucleotide": "CCATCACG", "E-score": -0.0473}
{"Oligonucleotide": "CATGCTGC", "E-score": 0.0883}
{"Oligonucleotide": "AGTCCGTA", "E-score": -0.111}
{"Oligonucleotide": "AGCCCCCG", "E-score": -0.0241}
{"Oligonucleotide": "GCCTGGCA", "E-score": 0.00026}
{"Oligonucleotide": "AACGTAGC", "E-score": -0.153}
{"Oligonucleotide": "CTCATTTA", "E-score": -0.0261}
